# Assay results pooled from the literature.
# Each numbered part is a random draw from the data of one study; scales do not carry over between parts.

# Sample 1 — technique: RNA Bind-n-Seq; molecule type: RNA; medium: in vitro; concentration: 365 nM; relative to: no-protein control; reading: higher = stronger binding
# Target: RNA binding protein fox-1 homolog 2, RRM domain, GST-SBP tag (RBFOX2, Homo sapiens, UniProt O43251-10, residues 100-194)
# Notes: natural RNA segment, single round, ends assumed
# All sequences stand within: GGGAGUUCUACAGUCCGACGAUC … UGGAAUUCUCGGGUGCCAA
# Target sequence (chain): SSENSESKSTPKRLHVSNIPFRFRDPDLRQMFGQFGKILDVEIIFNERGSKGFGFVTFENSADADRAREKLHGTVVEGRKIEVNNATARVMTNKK
Sequence,RBNS enrichment (R)
ACCGGUCCCCCCCUAGCCCGUCAUCAGCCGGUGGCAGCUCCAUCUUCCAUUCCUGGUUUUAGGGCAGAAUCCAUGGAGACUGCUUCCAGAAGGCAUCUGGCUCUGAGUUA,0.4
AGAGGUGCAUUCUCCGACCUCUGCCUCAGGCCUGAGGACGCCCACUGGGAGCUGGGGCAUUUCCAUCUCCUGGUGGCCAUCCCUGGUCAGGGUGUGAGUGAGCUCUGCUA,0.409
AGCCCUAGAAAGCUGCCUCCGUCCAGAAAUGCCUCUCACACCAGGAGCUCGGCCCUCUCUUUGUAGCUGUGACUGUCACCCUCUCAGGCUUUGUCUCAUCCUUCAUUCUG,0.312
CUGAGAAACUCCAGCCUCAAGAAUAUAAUCUCAUUCUAACCUUCACCUCUUCAACUUCUUCUGUGGCUUCUGUGUUACAUUGUUGCCCUGGUUCUCAUAUAUGCUGUGUA,1.87
AGGUUGCAUUCUCCACCAAGGGAGUUAACCUACCUGAACUAAGUAGAAAUGCCAGUCUUCCACUACCCCCUCCCUGCCAUCUUUUCUUCUGCUACUUUGGGGAGUUGAUG,0.842
AUAAGAGUUUUCAGAGAUUUCAUAUAUAUUAUAUAUCUUUUACAGAGACUAUUUUAAUCCUUAGCGCAUGGGUCCCGCUUUUGGUGAUAUUUUCACAUUAGGUUGCUGUC,1.04
AAUUUAGAAAAACAACAAAGGCUGUUUUUCCUAAUUUUGGCAUGAACCCCUUGUUCCAAGUGAAGGCGGCAUCACGAGUGGCUCCGAGGCGUCUGCAGUGCCCAGGGUGC,0.492
CAGUGCUGGACUGAUUCUCCCAGGCUGCAGUAGGGAUAGGGCAGGGAUAGGGACAGCCCAGGUCACAGCCAGGGUCAACAGAGGUACCACAGAGCUACCUUUUGGGAUGA,0.77
GCCCGUCCGGUAAACUAUGGUCCUGGGUGCCCAGUUGUGCAGUAGGGGGAGAAGCUGAAAGAUAAGGACUCAACCCAAGUCAUUUGUCUUCUUUCCUGCUAUGCUGUGAG,0.238
CCUGGGUUUUGUAUUCUCUGAGCUGUGCAGGUGGGGAGACUGGGCUGAGGGAGCCUGGCCCCAUGGUCAGCCCUAGGGUGGAGAGCCACCAAGAGGGACGCCUGGGGGUG,0.65
AGUGAACUUCAGCCAUAUUAAGGACGUGGUCUGUGGUUUAUCACCAGACUUGUUCACUCCAUUCAAUUAUGUCCUGAGCCUUGAAACUGUUUUAUUUAACCAUGGGGUAG,0.276
CGGCCUCCACAGUUAGAUGUUUAUGGUGCCAGAGGUCUAUAUUAAGGUAGCUGUCUGUUGCUAGGCAGCCGUUUGCACAAAUCUUGGACAUAAAUCCAACUUGAAGAUCA,0.54

# Sample 2 — technique: protein-binding microarray; molecule type: double-stranded DNA, one strand shown; medium: in vitro; concentration: 2540 nM top; notes: 60-bp whole probe; added: salmon DNA 0.4 mg/ml; relative to: random background probes; reading: higher = stronger binding; all sequences stand within: GCCTAGCAC … GTCTTGATTCGCTTGACGCTGCTG
# Target: Interferon regulatory factor 3, full length, phosphomimetic (IRF3, Homo sapiens, UniProt Q14653, residues 1-427, S386D/S396D/S398D/S402D/T404D/S405D)
# Sequence of UniProt Q14653 (whole entry, unmodified, looked up): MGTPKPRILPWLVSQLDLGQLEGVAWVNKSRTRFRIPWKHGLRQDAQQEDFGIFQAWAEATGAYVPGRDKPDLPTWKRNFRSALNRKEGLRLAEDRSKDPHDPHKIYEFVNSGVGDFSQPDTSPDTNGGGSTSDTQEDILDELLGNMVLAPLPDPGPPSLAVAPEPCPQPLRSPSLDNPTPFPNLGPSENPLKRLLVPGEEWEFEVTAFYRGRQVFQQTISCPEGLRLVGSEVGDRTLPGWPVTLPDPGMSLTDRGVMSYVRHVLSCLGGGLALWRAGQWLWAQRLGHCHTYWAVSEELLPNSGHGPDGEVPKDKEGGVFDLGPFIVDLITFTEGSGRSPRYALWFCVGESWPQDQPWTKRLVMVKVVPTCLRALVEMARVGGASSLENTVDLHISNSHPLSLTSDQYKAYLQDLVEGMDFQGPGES
Sequence,fitted relative affinity [z-score]
TCAGGACTGCTTTTCCTTTAGTGCTAG,0.95
TTAGATTCCACTTTCGATTAGTGCTAG,4.22
TCACTTTTATGCTCTTTCACTGTGCTA,1.26
TTTGATATCAGTATCGATTAGTGCTAG,1.84
GCATCTCGGAGATCTCGAAGCGTGCTA,0.0716
TTAGGACTGCTACTGTTTTAGTGCTAG,-0.244
TAAGGTATCGGGTTTCGGTTAGTGCTA,3.82
TTAGGACTGGGACTAGGTTAGTGCTAG,-0.734
CTAGATTTCAGTTCCGATTAGTGCTAG,3.75
GACGGTGTCGGACTGGGGACGTGCTAG,0.638
TCAGTTTTCTGGTTCCCACTGTGCTAG,1.83
GAAGCTTCTTTTTTATTCTAGTGCTAG,1.05
TCAGTTTTAGGTCCCTTACTGTGCTAG,1.78
GACGAACTGGGGACTGGTGACGTGCTA,-0.676
TTAGATTTGAGTCTCGATTAGTGCTAG,-0.02
TTGGAACTGGGGTTTCGATTAGTGCTA,1.06
TTAGCTCTCAGTTTCGATTAGTGCTAG,3.2
GTCGGTATCCTTATCCTGACGTGCTAG,6.45

# Sample 3 — technique: EMSA with sequencing; molecule type: double-stranded DNA, one strand shown; medium: in vitro; concentration: 10 and 20 nM; relative to: negative control set to 0; reading: higher = stronger binding
# Target: Hepatocyte nuclear factor 3-alpha (Foxa1, Mus musculus, UniProt P35582, residues 1-468, full length assumed)
# Notes: whole designed probe, mean of two concentrations, ends assumed
# All sequences stand within: GTGAGCGGTGCCCATTGATGGGGAAC … TTTCACTGGGATCGTGGGGAC
# Residues (chain): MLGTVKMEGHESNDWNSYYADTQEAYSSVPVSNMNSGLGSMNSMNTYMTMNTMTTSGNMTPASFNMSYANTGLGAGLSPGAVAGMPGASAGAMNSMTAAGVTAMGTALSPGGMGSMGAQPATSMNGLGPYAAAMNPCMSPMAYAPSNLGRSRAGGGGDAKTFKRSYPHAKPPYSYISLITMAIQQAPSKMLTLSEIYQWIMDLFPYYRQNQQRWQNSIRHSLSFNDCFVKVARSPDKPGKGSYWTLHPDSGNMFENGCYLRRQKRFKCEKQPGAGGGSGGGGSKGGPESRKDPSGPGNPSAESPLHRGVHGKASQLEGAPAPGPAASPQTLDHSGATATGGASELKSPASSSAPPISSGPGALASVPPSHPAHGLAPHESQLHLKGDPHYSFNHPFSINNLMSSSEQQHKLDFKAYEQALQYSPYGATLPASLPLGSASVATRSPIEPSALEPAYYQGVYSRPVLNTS
Sequence,normalised bound fraction [ratio]
CAATGGGGTAGGTCAGCCCCAGTGAACTCTCAAATGACCACTGAAGGAGGAAGTGAGTGCAGAGTGTGATACCACTCACATCCCAGCCCAGACTGTTTGCTCAGCTGGGAGGAGTGTTGCTTCTTCCTGCAAATTCGAGATAACACCCCTTCTCATGGCTTCAGGCATCACCTATCTCCTCTAGGCTGCGCTC,0.201
AGAACACCATGTGTAGGGAACCTGAATTTTTTGTAATAGGCCGTAAGCATGCCTGCCCTTTGGCCTGGAAAGAGACACTATATCTTCCAGGGCTGTTTGCTGTGTAAACATCCTTGAAAAGACAGCCTTGAACAAAGGGCAGTCAATAGTTCTACTCAAAAGACATGGAGAAATGCAAAAGACCCATGGAGAT,0.366
ATCTTCCCCCTCTTCCTTGCCCCACCAGCTCACCTTCCCGGGTTATTTGCAGATAGGAAAATAAATAAAGCCGGCATTCGTTAACCCTCTTCTGGCGCAAACTGCTGTTTGCTCTGCATGAATCATGGTCCTTACGCGACGCCAGGCTCCGGGAGAGCAAAGCACCGTGTCAGGCGCATGATCCGGGCTCGCC,0.344
ATCTTCCCCCTCTTCCTTGCCCCACCAGCTCACCTTCCCGGGTTATTTGCAGATAGGAAAATAAATAAAGCCGGCATTCGTTAACCCTCTTCACGCGCATACTGCTGTTTGCTCTGCATCTAACATGGTCCTTACGCGACGCCAGGCTCCGGGAGAGCAAAGCACCGTGTCAGGCGCATGATCCGGGCTCGCC,0.351
ATCTTCCCCCTCTTCCTTGCCCCACCAGCTCACCTTCCCGGGTTATTTGCAGATAGGAAAATAAATAAAGCCGGCATTCGTTAACGCAGTTCACGCGCATACTGCTGTTTGCTCTGCATCTAACATGGTCCTTACGCGAGGCGTGGCTCCGGGAGAGCAAAGCACCGTGTCAGGCGCATGATCCGGGGTGGCC,0.365
AAAATACCTACTGAAATTAAAATACCAGGATAGGACAAAATGATCTTTGATGTTGTTTCCAATTATCTCGTGTTTGTTCTAGGCACTGGCTATGTCAACAAAGCTTCGCCTTTTTTTTTTTTTCATGGTGACACAACCATGGCTGTGTTCAGGTTTACATGTTCTTACTTGTGTATTGGGGAAGGTTGGCCCC,0.469
ATCTTCCCCCTCTTCCTTGCCCCACCAGCTCACCTTCCCGGGTATCTGCAAATAAGTATTTATTTTCAAGCCGGCATTCGTTAACCCTCTTCTGGCGCAAACTGCCAGAGCAAACAGATCTAACATGGTCCTTTGGCGACGCCAGGCTCCGGGAGAGCAAAGCACCGTGTCAGGGCCATGATCCGGGGTGGCC,0.242
ATCTTCCCCCTCTTCCTTGCCCCACCAGCTCACCTACGGGGGTTATTTGCACAAAGGAAAATAAATAAAGCCGGCATTCGTTAACCCTCTTCTGGCGCAAACTGCTGTTTGCTCTGGATCTAACATGGTCCTTTGGCGACGCCAGGCTCCGGGAGAGCAAAGCACCGTGTCAGGGCCATGATCCGGGGTGGCC,0.382

# Sample 4 — technique: protein binding microarray; molecule type: double-stranded DNA, one strand shown; medium: in vitro; concentration: not given; relative to: not given; reading: higher = stronger binding
# Target: Histone acetyltransferase KAT6A, winged helix 2, GST fusion (KAT6A, Homo sapiens, UniProt Q92794, residues 85-181)
# Notes: 8-mer, flanks averaged, mean of 2 arrays, mostly near background
# Construct (chain): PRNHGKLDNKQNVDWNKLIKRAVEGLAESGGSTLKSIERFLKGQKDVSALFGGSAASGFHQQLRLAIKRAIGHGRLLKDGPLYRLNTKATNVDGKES
Sequence,E-score
GGAAGTAC,-0.124
CCTGATAC,0.0756
CTTCCGTA,-0.142
CAGTCTAG,-0.0147
GAGAGGGC,0.126
AGCGACTG,0.0532
TCACACCA,0.00287
GGCTCCCA,0.00763
CCGCCCCC,0.174
AGGAAGTA,-0.0732
AAAGAATC,-0.0584
CAATGGGG,-0.191
ATCTAACC,-0.121
CCCTTTCC,0.0652
CCGATGCG,0.178
AGCTTAAT,0.0681
AACATTTC,-0.0888
AAGAGCCA,0.057
ATAGCCCA,-0.0248

# Sample 5 — technique: universal PBM; molecule type: double-stranded DNA, one strand shown; medium: in vitro; concentration: not given; reading: higher = stronger binding
# Target: Sal-like protein 4, full length isoform B (SALL4, Homo sapiens, UniProt Q9UJQ4-2, residues 1-616)
# Notes: 8-mer, flanks averaged, mean of replicates
Sequence,E-score
ACCGGGTA,-0.24
CTAGACAA,-0.0032
ACCCTGCA,-7e-05
ACTCAAGA,-0.0562
CCCGAGAC,-0.24
CATCCCCG,-0.226
CAGAGACA,-0.151
ACTTGCTC,0.0327
CTACTGTC,0.0202
ACGAAAGA,0.121
ACACCTTC,0.00655
AGACAACC,-0.0301
GGTATGGA,-0.0354
CCGACACG,-0.292
CAACAGCG,-0.324
CTCGAACC,-0.269
AATCAGTG,0.0344
CCGATCGC,-0.129
AGTTATAC,0.284
ATCGTCCA,-0.0469

# Repeated from above (sample 5):
Sequence,E-score
ACACCTTC,0.00655
AGACAACC,-0.0301
GGTATGGA,-0.0354
CCGACACG,-0.292
CAACAGCG,-0.324
